Assay results gathered from unrelated publications.
Lines come from different studies, so protocols differ. ± gives the spread as reported.

Compound	target	assay	test system	conditions	how to read	measurement	result
C/C1=C/C[C@@H](/C(C)=C/c2csc(C)n2)OC(=O)C[C@H](O)C(C)(C)C(=O)[C@H](C)[C@@H](O)[C@@H](C)CCC1	tubulin	tubulin assembly, stimulator	cell-free	–	–	EC50	0.44 ± 0.02 µM
COc1cc(Nc2ncc(F)c(Nc3ccc4c(n3)NC(=O)C(C)(C)O4)n2)cc(OC)c1OC	central benzodiazepine receptor	binding	–	–	–	IC50	> 10 µM
C[C@H](C(=O)N[C@H]1COc2ccccc2[C@@H]1S(C)(=O)=O)c1ccc(F)cc1	nicotinic acetylcholine receptor, human	binding	–	10 µM, Eurofins selectivity panel	–	inhibition	5%
O=C(Cc1ccccc1)NC1CCOC1=O (stereo not shown)	ExpR2 (Pectobacterium carotovorum)	cellulase activity, antagonist	Pectobacterium carotovorum, single-ExpR2 strain	5 µM, 4 h, together with: OHHL 5 µM	–	inhibition	11%
C[N+](C)(C)CCOP(=O)(O)O	SAR11_0797 protein (Candidatus Pelagibacter ubique)	thermal stabilisation, differential scanning fluorimetry	–	–	–	ΔTm	6.6 °C
O=C(Cc1ccc(Br)cc1)N[C@H]1CCOC1=O	ExpR2 (Pectobacterium carotovorum)	cellulase activity, agonist	Pectobacterium carotovorum, single-ExpR2 strain	200 µM, 4 h	baseline: OHHL	activation	25%
CCOP(=S)(OCC)Oc1ccc([N+](=O)[O-])cc1	nanobody A4	ic-ELISA	–	concentration not given	baseline: coumaphos IC50 over compound IC50, mass basis	cross-reactivity	162%
CCCCCCCCCC(=O)CC(=O)N[C@H]1CCOC1=O	ExpR2 (Pectobacterium carotovorum)	cellulase activity, agonist	Pectobacterium carotovorum, single-ExpR2 strain	200 µM, 4 h	baseline: OHHL	activation	17%
CSCCNc1nc(SCCC(F)(F)F)nc2c1ncn2[C@@H]1O[C@H](COP(=O)(O)OP(=O)(O)C(Cl)(Cl)P(=O)(O)O)[C@@H](O)[C@H]1O	biotinylated rabbit IgG	–	–	11-point dose-response, protein A and streptavidin binding	–	maximum response	19.7%
CNCC[C@@H](Oc1ccccc1C)c1ccccc1	seizure ion channel panel	ion current, inhibitor	–	–	lowest across channels	lowest IC30	3.94 µM
Nc1nc2c(ncn2[C@@H]2O[C@@H]3COP(=O)(O)O[C@H]4[C@@H](O)[C@H](n5cnc6c(N)ncnc65)O[C@@H]4COP(=O)(O)O[C@@H]2[C@@H]3O)c(=O)[nH]1	STING (human)	Blue-Native PAGE	HeLa Kyoto with inducible STING	concentration not given	–	time to peak STING oligomerization	≤ 10 min
CCOP(=S)(OCC)Oc1ccc(Cl)cc1Cl	nanobody A4	ic-ELISA	–	concentration not given	baseline: coumaphos IC50 over compound IC50, mass basis	cross-reactivity	< 1%
Brc1ccc(Oc2ccc(Br)cc2Br)c(Br)c1	camel nanobody T2	binding, competitive ELISA	–	concentration not given	–	cross-reactivity	< 0.1%
CCOC(=O)[C@H](CCc1ccccc1)N[C@@H](C)C(=O)N1CCC[C@H]1C(=O)O	biotinylated rabbit IgG	–	–	11-point dose-response, protein A and streptavidin binding	–	maximum response	21.5%
O=C1CC2(CCCC2)CC(=O)N1CCCCN1CCN(c2ncccn2)CC1	seizure ion channel panel	ion current, inhibitor	–	–	lowest across channels	lowest IC30	> 30 µM
CCCCCC(=O)CC(=O)N[C@H]1CCOC1=O	ExpR2 (Pectobacterium carotovorum)	cellulase activity, antagonist	Pectobacterium carotovorum, single-ExpR2 strain	5 µM, 4 h, together with: OHHL 5 µM	–	inhibition	26%
CC[C@H](C)[C@@H]1NC(=O)[C@H]([C@@H](C)O)NC(=O)CNC(=O)[C@H](CCC(=O)O)NC(=O)[C@H](CCCCN)NC(=O)[C@H](CC(C)C)NC(=O)[C@H](Cc2ccccc2)NC(=O)[C@H](CCCCN)NC(=O)[C@@H]2CSSC[C@H](NC(=O)[C@@H](N)CCC(=O)O)C(=O)N[C@@H](CCC(=O)O)C(=O)N[C@@H](CO)C(=O)NCC(=O)N3CCC[C@H]3C(=O)N[C@H]3CSSC[C@@H]4NC(=O)[C@H](Cc5ccc(O)cc5)NC(=O)[C@H](CC(=O)O)NC(=O)[C@H](CC(=O)O)NC(=O)[C@H](CCSC)NC(=O)[C@H](CC(=O)O)NC(=O)[C@H](CC(=O)O)NC(=O)CNC(=O)[C@H](CCCNC(=N)N)NC(=O)[C@H](C)NC(=O)[C@H](CCCNC(=N)N)NC(=O)[C@H](CCCCN)NC(=O)[C@H](CSSC[C@@H](C(=O)N5CCC[C@H]5C(=O)N[C@@H](CCCNC(=N)N)C(=O)N[C@@H](CC(N)=O)C(=O)N5CCC[C@H]5C(=O)N[C@@H](Cc5c[nH]cn5)C(=O)N[C@@H](CCCCN)C(=O)NCC(=O)N5CCC[C@H]5C(=O)N[C@@H](C)C(=O)N[C@H](C(=O)O)[C@@H](C)O)NC(=O)[C@H](CC(=O)O)NC(=O)[C@H](CSSC[C@H](NC3=O)C(=O)N[C@@H](CCCNC(=N)N)C(=O)N[C@@H](CC(N)=O)C(=O)N2)NC(=O)[C@H]([C@@H](C)O)NC(=O)[C@H](CCCCN)NC(=O)CNC(=O)[C@H](CC(N)=O)NC4=O)NC1=O	integrin αvβ3 (human)	cell adhesion to vitronectin, inhibitor	U-87 MG	2 h, 37 °C	–	IC50	0.0058 µM
O=C(Cc1cccc([N+](=O)[O-])c1)N[C@H]1CCOC1=O	ExpR2 (Pectobacterium carotovorum)	cellulase activity, antagonist	Pectobacterium carotovorum, single-ExpR2 strain	5 µM, 4 h, together with: OHHL 5 µM	–	inhibition	-4%
O=C(NCc1c(F)cc(F)cc1F)c1cn2c(c(O)c1=O)C(=O)N1[C@H]3CC[C@H](C3)O[C@@H]1C2	biotinylated rabbit IgG	–	–	11-point dose-response, protein A and streptavidin binding	–	maximum response	-19.5%
Oc1cccc2ccccc12	human UGT	glucuronidation	human liver microsomes	200 µM, 60 min, together with: FBI-COOH 50 µM	–	inhibition	> 50%

Compound	target	assay	test system	conditions	how to read	measurement	result
CCOC(=O)c1ccc(OC(=O)CCCCCN=C(N)N)cc1.CS(=O)(=O)O	trypsin, human	inhibitor	–	–	–	Hill slope	-1.12
CC[C@H](C)[C@H](NC(=O)CNC(=O)[C@@H](NC(=O)[C@H](Cc1ccccc1)NC(=O)[C@H](Cc1ccc(O)cc1)NC(=O)[C@@H]1CCC(=O)NCC(=O)NCC(=O)N[C@@H](C)C(=O)NCC(=O)N[C@@H](Cc2c[nH]cn2)C(=O)N[C@@H](C(C)C)C(=O)N2CCC[C@H]2C(=O)N1)C(C)C)C(=O)NCC(=O)N[C@H](C(=O)N1CCC[C@H]1C(=O)N[C@H](C(=O)N[C@@H](CO)C(=O)N[C@@H](Cc1ccccc1)C(=O)N[C@@H](Cc1ccc(O)cc1)C(=O)NCC(=O)O)[C@@H](C)CC)[C@@H](C)O	Pseudomonas aeruginosa RNA polymerase	inhibitor	–	–	–	transcript elongation	inhibited
CCCCCC(=O)N[C@H]1CCOC1=O	ExpR2 (Pectobacterium carotovorum)	cellulase activity, agonist	Pectobacterium carotovorum, single-ExpR2 strain	200 µM, 4 h	baseline: OHHL	activation	94%
COP(=S)(OC)Oc1ccc([N+](=O)[O-])c(C)c1	nanobody A4	binding, ic-ELISA	–	together with: H1-OVA coating antigen	–	IC50	> 4 µg/mL
Cc1cc(C2CCCCC2)n(O)c(=O)c1	biotinylated rabbit IgG	–	–	11-point dose-response, protein A and streptavidin binding	–	maximum response	-32.8%
CCOP(=S)(OCC)SCn1c(=O)oc2cc(Cl)ccc21	nanobody A4	binding, ic-ELISA	–	–	–	IC50	7.79 µM
O=C(Cc1ccccc1I)N[C@H]1CCOC1=O	ExpR2 (Pectobacterium carotovorum)	cellulase activity, agonist	Pectobacterium carotovorum, single-ExpR2 strain	200 µM, 4 h	baseline: OHHL	activation	24%
CC(=O)Oc1ccccc1C(=O)O	seizure ion channel panel	ion current, inhibitor	–	–	lowest across channels	lowest IC30	> 30 µM
O=C(O[C@@H]1O[C@@H]2COC(=O)c3cc(O)c(O)c(O)c3-c3c(cc(O)c(O)c3O)C(=O)O[C@H]([C@H]1O)[C@@H]2O)c1cc(O)c(O)c(O)c1	biotinylated rabbit IgG	–	–	11-point dose-response, protein A and streptavidin binding	–	maximum response	-27.1%
CCOP(=S)(OCC)O/N=C(\C#N)c1ccccc1	nanobody A4	binding, ic-ELISA	–	–	–	IC50	5.18 µM
O=C(Nc1cccnn1)N1CCN([C@@H]2CCOc3cc(C(F)(F)F)ccc32)CC1	I1	Cerep BioPrint	–	20 µM	–	inhibition	35%
CN(C)C(=O)c1cc2cnc(Nc3ccc(-c4ccc5c(=O)cc(N6CCOCC6)oc5c4)cc3)nc2n1C1CCCC1	kinase panel	binding, KINOMEscan	–	1.0 µM	–	fraction of kinome inhibited	1.5%
COC(=O)Nc1nc2ccc(Sc3ccccc3)cc2[nH]1	biotinylated rabbit IgG	–	–	11-point dose-response, protein A and streptavidin binding	–	maximum response	-3.09%
CC(=O)Nc1ccc(O)cc1	seizure ion channel panel	ion current, inhibitor	–	–	lowest across channels	lowest IC30	> 30 µM
Cc1oc(=O)oc1CN1CCN(c2cc3c(cc2F)c(=O)c(C(=O)O)c2n3C(C)S2)CC1 (stereo not shown)	biotinylated rabbit IgG	–	–	11-point dose-response, protein A and streptavidin binding	–	maximum response	-13.9%
CCOP(=S)(OCC)Oc1nc(Cl)c(Cl)cc1Cl	nanobody A4	binding, ic-ELISA	–	together with: H1-OVA coating antigen	–	IC50	> 4 µg/mL
O=C(Cc1ccc(I)cc1)N[C@H]1CCOC1=O	ExpR2 (Pectobacterium carotovorum)	cellulase activity, antagonist	Pectobacterium carotovorum, single-ExpR2 strain	5 µM, 4 h, together with: OHHL 5 µM	–	inhibition	68%
CO[C@H]1/C=C\C=C(/C)C(=O)NC2=CC(=O)C(NCCN(C)C)=C(C[C@@H](C)C[C@H](OC)[C@H](O)[C@@H](C)/C=C(\C)[C@@H]1OC(N)=O)C2=O	MyBP-C	–	MYBPC3 iPSC-derived cardiomyocytes (human)	concentration not given, fresh powder retest	–	activity	inactive
CCOP(=S)(OCC)Oc1cnc2ccccc2n1	nanobody A4	binding, ic-ELISA	–	together with: H1-OVA coating antigen	–	IC50	0.327 µg/mL
O=C(O)c1ccccn1	biotinylated rabbit IgG	–	–	11-point dose-response, protein A and streptavidin binding	–	maximum response	24.1%

Some of these lines once more:
Compound	target	assay	test system	conditions	how to read	measurement	result
CN(C)C(=O)c1cc2cnc(Nc3ccc(-c4ccc5c(=O)cc(N6CCOCC6)oc5c4)cc3)nc2n1C1CCCC1	kinase panel	binding, KINOMEscan	–	1.0 µM	–	fraction of kinome inhibited	1.5%
Cc1cc(C2CCCCC2)n(O)c(=O)c1	biotinylated rabbit IgG	–	–	11-point dose-response, protein A and streptavidin binding	–	maximum response	-32.8%
CCCCCC(=O)N[C@H]1CCOC1=O	ExpR2 (Pectobacterium carotovorum)	cellulase activity, agonist	Pectobacterium carotovorum, single-ExpR2 strain	200 µM, 4 h	baseline: OHHL	activation	94%
COP(=S)(OC)Oc1ccc([N+](=O)[O-])c(C)c1	nanobody A4	binding, ic-ELISA	–	together with: H1-OVA coating antigen	–	IC50	> 4 µg/mL
